# Published values gathered from unrelated publications.
# Sequences of proteins named here, by UniProt entry; tags and fusion partners are left off. Residues count along the entry.
# UniProt P03372, whole entry: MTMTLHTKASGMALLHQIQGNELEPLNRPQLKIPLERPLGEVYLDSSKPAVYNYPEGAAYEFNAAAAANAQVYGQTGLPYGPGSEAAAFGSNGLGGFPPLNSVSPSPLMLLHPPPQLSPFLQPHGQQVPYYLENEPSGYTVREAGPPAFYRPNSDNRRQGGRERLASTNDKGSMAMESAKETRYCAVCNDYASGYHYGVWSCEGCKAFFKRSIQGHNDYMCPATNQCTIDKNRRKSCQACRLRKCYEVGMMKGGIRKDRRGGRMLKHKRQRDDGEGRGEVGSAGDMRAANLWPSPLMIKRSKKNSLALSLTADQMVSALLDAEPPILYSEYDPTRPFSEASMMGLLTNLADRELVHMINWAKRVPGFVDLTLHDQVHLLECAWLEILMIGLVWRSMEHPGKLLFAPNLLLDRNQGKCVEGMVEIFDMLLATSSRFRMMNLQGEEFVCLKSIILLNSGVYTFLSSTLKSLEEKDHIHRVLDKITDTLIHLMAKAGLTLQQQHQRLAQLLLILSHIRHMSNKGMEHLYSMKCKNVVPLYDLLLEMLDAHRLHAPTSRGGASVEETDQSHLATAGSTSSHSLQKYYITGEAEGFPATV
# UniProt Q9BV23, whole entry: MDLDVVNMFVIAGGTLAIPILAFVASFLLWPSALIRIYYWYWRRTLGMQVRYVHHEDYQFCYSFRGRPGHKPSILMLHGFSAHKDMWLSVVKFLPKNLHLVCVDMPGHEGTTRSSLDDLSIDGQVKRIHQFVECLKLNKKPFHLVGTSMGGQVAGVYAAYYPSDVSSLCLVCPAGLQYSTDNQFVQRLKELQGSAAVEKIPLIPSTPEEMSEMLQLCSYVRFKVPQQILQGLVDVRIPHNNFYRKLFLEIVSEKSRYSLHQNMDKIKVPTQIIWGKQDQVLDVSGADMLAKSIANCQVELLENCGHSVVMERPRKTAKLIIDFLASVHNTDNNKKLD
# UniProt P11362, 22-822 limits assumed: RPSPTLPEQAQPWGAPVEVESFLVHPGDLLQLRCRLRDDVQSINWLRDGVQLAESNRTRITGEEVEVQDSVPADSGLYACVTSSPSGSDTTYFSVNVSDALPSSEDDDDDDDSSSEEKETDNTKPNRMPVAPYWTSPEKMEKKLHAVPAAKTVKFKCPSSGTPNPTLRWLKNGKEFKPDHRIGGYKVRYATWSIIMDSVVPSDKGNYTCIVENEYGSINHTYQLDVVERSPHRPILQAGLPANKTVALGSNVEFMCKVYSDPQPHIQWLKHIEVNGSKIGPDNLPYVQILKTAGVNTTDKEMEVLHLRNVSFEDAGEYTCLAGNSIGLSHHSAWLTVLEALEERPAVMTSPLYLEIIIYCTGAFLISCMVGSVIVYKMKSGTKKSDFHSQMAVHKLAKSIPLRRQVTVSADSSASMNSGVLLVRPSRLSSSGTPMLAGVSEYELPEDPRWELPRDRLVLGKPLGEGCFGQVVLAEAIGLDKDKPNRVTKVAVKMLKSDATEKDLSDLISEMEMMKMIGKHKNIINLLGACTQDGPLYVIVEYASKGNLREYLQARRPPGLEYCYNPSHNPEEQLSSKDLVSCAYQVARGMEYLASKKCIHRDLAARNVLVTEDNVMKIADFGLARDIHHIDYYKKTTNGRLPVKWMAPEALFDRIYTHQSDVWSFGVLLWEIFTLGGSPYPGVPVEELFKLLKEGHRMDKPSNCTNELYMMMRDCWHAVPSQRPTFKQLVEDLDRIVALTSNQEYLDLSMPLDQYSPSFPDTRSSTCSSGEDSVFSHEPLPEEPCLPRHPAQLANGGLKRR
# UniProt O75365, whole entry: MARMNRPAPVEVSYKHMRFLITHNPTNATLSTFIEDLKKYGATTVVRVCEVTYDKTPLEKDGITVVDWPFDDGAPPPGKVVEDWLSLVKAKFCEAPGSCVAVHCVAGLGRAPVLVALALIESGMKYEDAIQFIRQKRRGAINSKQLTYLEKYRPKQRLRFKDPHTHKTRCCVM
# UniProt P50750, whole entry: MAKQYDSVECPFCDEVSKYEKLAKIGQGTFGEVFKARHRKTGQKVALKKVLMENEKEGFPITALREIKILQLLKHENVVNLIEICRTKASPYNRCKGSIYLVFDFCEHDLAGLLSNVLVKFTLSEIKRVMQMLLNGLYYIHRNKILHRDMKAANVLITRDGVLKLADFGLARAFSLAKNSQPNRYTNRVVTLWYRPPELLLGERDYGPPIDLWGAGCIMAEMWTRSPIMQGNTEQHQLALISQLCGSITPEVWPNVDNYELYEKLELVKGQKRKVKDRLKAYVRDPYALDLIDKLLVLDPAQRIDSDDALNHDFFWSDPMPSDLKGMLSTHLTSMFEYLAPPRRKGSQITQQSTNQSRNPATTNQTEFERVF
# UniProt P28072, whole entry, looked up: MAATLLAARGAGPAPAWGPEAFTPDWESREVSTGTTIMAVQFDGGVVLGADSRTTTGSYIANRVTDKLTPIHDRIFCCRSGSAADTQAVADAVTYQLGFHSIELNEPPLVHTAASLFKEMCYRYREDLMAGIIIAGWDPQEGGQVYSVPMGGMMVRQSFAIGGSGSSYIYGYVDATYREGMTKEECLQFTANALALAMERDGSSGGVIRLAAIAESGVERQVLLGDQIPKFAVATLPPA
# UniProt Q99436, whole entry, looked up: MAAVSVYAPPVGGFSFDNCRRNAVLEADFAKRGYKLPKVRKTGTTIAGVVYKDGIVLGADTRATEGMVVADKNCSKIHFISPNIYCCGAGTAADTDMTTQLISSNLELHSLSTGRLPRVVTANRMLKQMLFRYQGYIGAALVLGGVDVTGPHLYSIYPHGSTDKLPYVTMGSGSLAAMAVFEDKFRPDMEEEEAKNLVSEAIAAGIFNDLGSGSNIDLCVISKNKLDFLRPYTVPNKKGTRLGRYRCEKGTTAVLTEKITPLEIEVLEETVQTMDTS
# UniProt P26038, whole entry, looked up: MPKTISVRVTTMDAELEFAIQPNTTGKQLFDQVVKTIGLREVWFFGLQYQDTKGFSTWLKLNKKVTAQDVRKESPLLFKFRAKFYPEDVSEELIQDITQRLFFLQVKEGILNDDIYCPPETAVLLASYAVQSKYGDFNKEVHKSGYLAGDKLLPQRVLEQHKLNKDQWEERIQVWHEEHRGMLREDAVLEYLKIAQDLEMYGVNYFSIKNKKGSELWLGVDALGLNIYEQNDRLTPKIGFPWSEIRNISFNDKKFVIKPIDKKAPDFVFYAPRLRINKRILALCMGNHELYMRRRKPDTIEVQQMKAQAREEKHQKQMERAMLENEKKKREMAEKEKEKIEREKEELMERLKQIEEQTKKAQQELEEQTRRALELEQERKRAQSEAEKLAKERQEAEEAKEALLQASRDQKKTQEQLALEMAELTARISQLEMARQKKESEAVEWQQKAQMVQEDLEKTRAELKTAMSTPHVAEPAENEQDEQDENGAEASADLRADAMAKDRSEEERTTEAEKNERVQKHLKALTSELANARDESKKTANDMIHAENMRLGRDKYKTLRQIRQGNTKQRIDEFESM
# UniProt O00519, whole entry: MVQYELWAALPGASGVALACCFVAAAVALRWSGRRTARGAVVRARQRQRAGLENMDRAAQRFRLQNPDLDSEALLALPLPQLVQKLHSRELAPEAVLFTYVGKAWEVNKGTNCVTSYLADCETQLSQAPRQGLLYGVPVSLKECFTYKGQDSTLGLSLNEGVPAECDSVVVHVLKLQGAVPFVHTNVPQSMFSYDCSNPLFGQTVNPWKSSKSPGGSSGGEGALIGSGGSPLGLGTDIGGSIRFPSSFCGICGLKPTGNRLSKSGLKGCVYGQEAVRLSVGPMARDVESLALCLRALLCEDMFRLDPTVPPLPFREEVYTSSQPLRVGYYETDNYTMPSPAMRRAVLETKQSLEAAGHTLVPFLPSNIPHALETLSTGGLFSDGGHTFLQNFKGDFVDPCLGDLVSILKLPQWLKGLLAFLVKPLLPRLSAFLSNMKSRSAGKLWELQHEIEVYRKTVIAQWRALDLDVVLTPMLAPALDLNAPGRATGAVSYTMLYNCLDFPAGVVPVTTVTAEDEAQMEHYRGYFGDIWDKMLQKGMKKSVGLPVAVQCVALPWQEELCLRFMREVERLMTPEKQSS
# UniProt P05067, whole entry, looked up: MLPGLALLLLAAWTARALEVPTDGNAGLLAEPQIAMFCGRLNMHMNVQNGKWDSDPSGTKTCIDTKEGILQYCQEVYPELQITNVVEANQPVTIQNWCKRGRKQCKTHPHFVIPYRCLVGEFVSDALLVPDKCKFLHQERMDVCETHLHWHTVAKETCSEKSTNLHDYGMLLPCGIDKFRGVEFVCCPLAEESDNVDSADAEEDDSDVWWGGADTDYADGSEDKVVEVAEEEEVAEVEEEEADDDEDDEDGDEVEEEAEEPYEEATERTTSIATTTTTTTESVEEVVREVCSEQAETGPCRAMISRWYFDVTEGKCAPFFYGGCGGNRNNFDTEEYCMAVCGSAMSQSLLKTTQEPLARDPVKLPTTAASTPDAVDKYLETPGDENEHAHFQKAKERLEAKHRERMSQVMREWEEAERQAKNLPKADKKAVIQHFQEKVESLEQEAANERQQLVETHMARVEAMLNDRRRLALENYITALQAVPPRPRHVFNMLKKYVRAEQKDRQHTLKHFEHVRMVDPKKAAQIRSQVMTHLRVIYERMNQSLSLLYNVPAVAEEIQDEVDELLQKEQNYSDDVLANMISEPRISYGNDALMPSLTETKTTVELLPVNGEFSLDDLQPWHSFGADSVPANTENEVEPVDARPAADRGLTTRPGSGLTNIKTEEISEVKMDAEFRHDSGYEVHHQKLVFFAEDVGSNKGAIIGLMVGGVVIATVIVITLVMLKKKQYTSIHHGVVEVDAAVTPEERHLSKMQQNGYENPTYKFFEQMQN
# UniProt P31421, 19-872 limits assumed: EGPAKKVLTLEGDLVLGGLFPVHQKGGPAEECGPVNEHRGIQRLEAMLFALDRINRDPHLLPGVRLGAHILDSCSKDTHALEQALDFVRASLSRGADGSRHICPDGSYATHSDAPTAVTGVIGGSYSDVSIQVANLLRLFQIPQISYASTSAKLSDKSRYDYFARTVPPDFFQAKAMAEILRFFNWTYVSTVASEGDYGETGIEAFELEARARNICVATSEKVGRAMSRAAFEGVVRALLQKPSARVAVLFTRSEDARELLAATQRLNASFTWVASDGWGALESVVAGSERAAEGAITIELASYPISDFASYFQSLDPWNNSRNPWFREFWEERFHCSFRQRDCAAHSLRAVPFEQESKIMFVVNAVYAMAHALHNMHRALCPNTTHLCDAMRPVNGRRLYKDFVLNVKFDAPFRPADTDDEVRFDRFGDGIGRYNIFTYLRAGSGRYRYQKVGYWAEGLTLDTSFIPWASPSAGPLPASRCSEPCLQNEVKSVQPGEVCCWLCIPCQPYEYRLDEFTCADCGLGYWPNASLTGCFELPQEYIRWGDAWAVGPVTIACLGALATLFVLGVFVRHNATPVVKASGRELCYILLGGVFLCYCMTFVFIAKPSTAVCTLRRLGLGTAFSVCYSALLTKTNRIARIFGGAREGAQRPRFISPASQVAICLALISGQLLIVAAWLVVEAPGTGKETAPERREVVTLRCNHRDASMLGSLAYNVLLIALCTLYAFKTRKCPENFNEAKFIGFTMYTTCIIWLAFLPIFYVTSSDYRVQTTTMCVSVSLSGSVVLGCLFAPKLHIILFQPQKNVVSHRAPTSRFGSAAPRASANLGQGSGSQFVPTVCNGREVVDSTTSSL
# UniProt A0A381MCS3, 1-451: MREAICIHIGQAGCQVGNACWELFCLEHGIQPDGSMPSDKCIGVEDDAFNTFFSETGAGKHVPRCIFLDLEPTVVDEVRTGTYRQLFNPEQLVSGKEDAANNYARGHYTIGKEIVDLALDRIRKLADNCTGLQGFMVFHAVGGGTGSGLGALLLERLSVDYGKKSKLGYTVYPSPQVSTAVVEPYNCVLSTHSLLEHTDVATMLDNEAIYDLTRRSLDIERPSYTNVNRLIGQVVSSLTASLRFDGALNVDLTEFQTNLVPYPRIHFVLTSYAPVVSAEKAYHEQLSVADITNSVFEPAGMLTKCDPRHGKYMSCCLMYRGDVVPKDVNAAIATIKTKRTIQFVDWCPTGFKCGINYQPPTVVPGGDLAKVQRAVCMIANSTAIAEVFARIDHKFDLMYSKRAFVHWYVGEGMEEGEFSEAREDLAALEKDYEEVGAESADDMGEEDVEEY
# UniProt A4HTR0, 1-443: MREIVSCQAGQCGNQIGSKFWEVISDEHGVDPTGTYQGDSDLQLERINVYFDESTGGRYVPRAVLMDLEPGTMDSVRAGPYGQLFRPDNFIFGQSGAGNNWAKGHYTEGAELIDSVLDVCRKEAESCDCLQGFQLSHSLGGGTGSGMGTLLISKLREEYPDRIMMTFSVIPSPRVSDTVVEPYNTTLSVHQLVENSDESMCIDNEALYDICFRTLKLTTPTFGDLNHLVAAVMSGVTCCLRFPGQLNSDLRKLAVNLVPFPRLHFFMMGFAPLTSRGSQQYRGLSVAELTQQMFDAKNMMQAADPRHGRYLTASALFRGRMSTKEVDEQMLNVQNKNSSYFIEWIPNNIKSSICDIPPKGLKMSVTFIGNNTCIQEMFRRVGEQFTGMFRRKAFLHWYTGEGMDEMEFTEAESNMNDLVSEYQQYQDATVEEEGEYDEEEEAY
# Lines come from different studies, so protocols differ. “And” joins repeats or separate records; there may be more than shown. ± gives the spread as reported.
# ESR1: Estrogen receptor (ESR1, Homo sapiens, UniProt P03372)
SMILES,tested on,test,test system,conditions,how to read,quantity,result
c1cncc(-c2ccc(-c3cncs3)nc2)c1,"ALK (Homo sapiens, UniProt Q9UM73)",ELISA,,,,IC50,58 µM
COC(=O)[C@@]1(C)C=C(C(=O)Nc2cccc(C(=O)NC34CC(Nc5nccc(-c6cccnc6)n5)(C3)C4)c2)C(=O)CC1,"MAPK8 (Homo sapiens, UniProt P45983)","kinase activity, inhibitor",,"44.44 µM, unit not given, together with: 10 mM GSH",reference: DMSO,remaining activity,0.0213
O=C(OC(C(F)(F)F)C(F)(F)F)N1Cc2ccc(Br)cc2C1,"ABHD6 (Homo sapiens, UniProt Q9BV23)","inhibitor, fluorescence",,,,IC50,0.0134 µM and 0.013 µM
Cc1cc(SCc2sc(-c3cc(Cl)cc(C(F)(F)F)c3)nc2C)ccc1OCC(=O)O,HEK293T,,,18 h,,CC50,> 33 µM
Cc1ccc2oc(-c3c4c(N)n[nH]c(=O)c4nn3-c3ccc(F)cc3)c(C)c2c1,"FGFR1 (Homo sapiens, UniProt P11362)","kinase activity, inhibitor, ELISA",,,,IC50,0.0501 ± 0.0218 µM
O=c1[nH]c(=O)c2cc(-c3ccccc3)sc2[nH]1,"PTP4A3 (Homo sapiens, UniProt O75365)",phosphatase activity,,"30 min, pH 7.0, 25 °C, together with: DiFMUP 12 µM",,IC50,> 240 µM
CN1CC[C@H](c2c(O)cc(O)c3c(=O)cc(-c4ccccn4)oc23)[C@H](O)C1,"Cyclin-dependent kinase 9, with cyclin T1 (CDK9, Homo sapiens, UniProt P50750)",inhibitor,,"with cyclin T1, GST-CTD substrate",,IC50,0.0113 µM
O=C(Cn1c(-c2cscn2)nc2ccccc21)Nc1ccc(Cl)cc1,"IMPDH2 (Homo sapiens, UniProt P12268)","enzyme activity, inhibitor",,,lower bound,IC50,≥ 20 µM
O=C(CSc1cccc(C(F)(F)F)c1)Nc1ccc2nc(SCC(=O)NC3CC3)sc2c1,ESR1,"reporter gene, antagonist",HEC-1 transfected ERα luciferase reporter,,,IC50,20 to 50 µM
CN1CCC[C@@H]1C(=O)N[C@@H](Cc1ccccc1)B(O)O,"PSMB6/PSMB7, caspase-like site (Homo sapiens, UniProt P28072+Q99436)","β1c enzyme activity, inhibitor",,together with: Z-LLE-AMC,,IC50,> 10 µM
O=C(Nc1ccc(-c2nc3ccccc3[nH]2)cc1)C1CCCC1,"Moesin, with CD44 (Homo sapiens, UniProt P26038)","MSN-CD44 interaction, inhibitor, TR-FRET",,together with: CD44,,IC50,> 100 µM
CC(=NN=c1[nH]c2cc(F)c(F)cc2n1C)c1ccc(F)cn1,,"lung metastatic growth, lung luciferase","LM2, nude mice",10 mg/kg/day,,inhibition,> 70%
Cc1cc(SCc2sc(-c3ccc(OCC(F)(F)F)c(F)c3)nc2C)ccc1OCC(=O)O,HEK293T,,,18 h,,CC50,> 50 µM
[2H]c1c([2H])c(S(=O)(=O)N2CCC(C)(C(=O)Nc3ccc4cc(C(=O)O)ccc4c3)CC2)c(C([2H])([2H])[2H])c([2H])c1C([2H])([2H])[2H],"FAAH (Homo sapiens, UniProt O00519)",,,"pH 8, 37 °C, together with: OMP substrate 50 µM",,IC50,56 µM
CCOC(=O)C1=C(C)NC2=C(C(=O)CC(C)(C)C2)C1c1ccc(OCC(=O)NN=Cc2cccc(C=O)c2)cc1OCC(=O)NN=Cc1cccc(C=O)c1 (centres unmarked),Bacillus cereus,,EMC 19,"concentration not given, 24 h",,inhibition zone diameter,4.1 ± 0.01 mm
N#Cc1cnc(Nc2nc3ccccc3o2)nc1-c1cccc2ccccc12,"Grm5 (Rattus norvegicus, UniProt P31424)","calcium mobilization, negative allosteric modulator",,together with: glutamate EC80,,IC50,> 10 µM
N#Cc1cccc(N2CCN(C(=O)CCCCCn3c(=S)[nH]c4ccccc4c3=O)CC2)c1,ESR1,"reporter gene, antagonist",HEC-1 cells transfected with ERα,together with: estradiol 1 nM,,IC50,9.9 µM
Cc1ncsc1-c1ccc([C@H](C)NC(=O)[C@@H]2C[C@@H](O)CN2C(=O)[C@@H](NC(=O)CCCCCCC(=O)N2CCN(C[C@]3(C)CCC(c4ccc(Cl)cc4)=C(CN4CCN(c5ccc(C(=O)NS(=O)(=O)c6ccc(N[C@H](CCN7CCOCC7)CSc7ccccc7)c(S(=O)(=O)C(F)(F)F)c6)cc5)CC4)C3)CC2)C(C)(C)C)cc1,,,"STAM mice NASH-HCC model, liver","day 150, treated days 90-150",,HCC development,decreased
C[C@H](NC(=O)c1cc(C(=O)O)cc([C@H]2CCN[C@@H]2C(=O)O)c1)C(=O)O,kainate receptor (rat),"binding, radioligand binding",rat cortical synaptosomes,together with: [3H]kainate,,IC50,54 µM
Clc1ccc(C2(c3ccc(-c4ccnc5ccccc45)cc3)CCNCC2)cc1,"LATS1 (Homo sapiens, UniProt O95835)","kinase activity, inhibitor, radiometric HotSpot",,together with: ATP 10 µM,,IC50,0.55 µM
CCC1NC(=O)C(CCCNC(=N)N)NC(=O)C(C)(NC(=O)C(C)C)CCCCNC(=O)C(c2ccccc2)NC1=O (centres unmarked),,"cell growth, CellTiter-Glo","MLL-AF9 leukaemia cells, mouse",,,GI50,~10 µM
COc1ccc2[nH]cc(CCc3ccc(OS(C)(=O)=O)cc3)c2c1,"Amyloid-beta precursor protein, amyloid-beta peptide (APP, Homo sapiens, UniProt P05067)","Aβ42 oligomerisation, ELISA",,,,IC50,> 20 µM
NC(=O)c1cn(-c2ccc(F)cc2)c2ccc(COc3ccc(Cl)nc3)cc2c1=O,"Grm2 (Rattus norvegicus, UniProt P31421)","calcium mobilization, negative allosteric modulator",,,,IC50,0.193 µM
CCOc1cc(C(=O)N2CCC(N3CCN(C)CC3)CC2)ccc1Nc1ncc2c(n1)N(C(C)C)c1ccccc1C(=O)N2C,"LRRK2 (Homo sapiens, UniProt Q5S007)","kinase activity, Adapta",,,,IC50,0.114 ± 0.011 µM
COc1cc([C@@H]2c3cc4c(cc3C=C(C=O)[C@H]2C(=O)OCCCBr)OCO4)cc(OC)c1OC,"Tubulin alpha/beta heterodimer (Leishmania infantum, UniProt A0A381MCS3+A4HTR0)","tubulin polymerization, inhibitor",,"37 °C, together with: tubulin 1.2 mg/mL",,IC50,1.7 ± 0.1 µM
NCc1ccc(C(=O)NOCc2ccc(C(F)(F)F)cc2)cc1,"SIRT6 (Homo sapiens, UniProt Q8N6T7)","deacetylase activity, inhibitor, fluorogenic",,together with: RHKK-ac-AMC,,IC50,3.07 ± 0.14 µM
